{"data": "Results from different studies", "Genome polyprotein NS3 helicase domain": "Genome polyprotein, NS3 helicase domain (Hepatitis C virus genotype 1b, UniProt Q9WMX2)", "Glutamate receptor 2": "Glutamate receptor 2 (Homo sapiens, UniProt P42262)", "DRD3": "D(3) dopamine receptor (DRD3, Homo sapiens, UniProt P35462)", "KCNQ3/KCNQ2": "Voltage-gated potassium channel, KQT; KCNQ2(Kv7.2)/KCNQ3(Kv7.3) (KCNQ3/KCNQ2, Homo sapiens, UniProt O43525+O43526)", "note": "Lines come from different studies, so protocols differ. Values joined by “and” are separate records of one study, mostly repeats; a detail may differ. Numbers after ± are the reported error."}
{"SMILES": "CN1CCN(c2cc(-c3ccncc3)c(-c3ccc4ccccc4c3)nn2)CC1", "target": "SSTR4 (Homo sapiens, UniProt P31391)", "assay": "antagonist, FLIPR", "setting": "10 µM", "inhibition": "5.7%"}
{"SMILES": "Br.CN=c1nc(-c2ccccc2)n(-c2ccccc2)s1", "target": "Genome polyprotein NS3 helicase domain", "assay": "DNA binding, inhibitor", "system": "hepatitis C virus", "setting": "100 µM, added: Cy5-dT15 DNA", "inhibition": "8%"}
{"SMILES": "CCCCCCCCCCCCCCCCCC1NCCc2cc(O)c(O)cc21 (stereo not shown)", "target": "tyrosinase", "assay": "enzyme activity, inhibitor", "setting": "100 µM, added: L-DOPA substrate", "inhibition": "3.97 ± 2.23%"}
{"SMILES": "CC(C)c1noc2ncc(C(=O)c3ccccc3O)cc12", "target": "Asic1 (Rattus norvegicus, UniProt P55926)", "assay": "ion current, inhibitor, whole-cell patch clamp", "setting": "10 µM", "inhibition": "2.5% and 7.7% and 11% and 9.1%"}
{"SMILES": "CNc1cccc2cc(C(=O)Nc3ccc(C(=O)O)cc3)c(=O)[nH]c12", "target": "Protein kinase C beta type, beta-I isoform (PRKCB, Homo sapiens, UniProt P05771)", "setting": "10 µM", "inhibition": "20%"}
{"SMILES": "O=C1CN(CC[C@@H](CO)NCc2c[nH]c3c(O)nc(O)nc23)S(=O)(=O)N1", "target": "Hypoxanthine-guanine-xanthine phosphoribosyltransferase (Plasmodium falciparum, UniProt P20035)", "assay": "enzyme activity, inhibitor, coupled IMPDH", "setting": "up to 100 µM", "inhibition": "inactive"}
{"SMILES": "COc1cccc(C(=O)NCCN2CCN(c3ccc(Cl)cc3)CC2)c1", "target": "Genome polyprotein NS3 helicase domain", "assay": "DNA binding, inhibitor", "system": "hepatitis C virus", "setting": "100 µM, added: Cy5-dT15 DNA", "inhibition": "0%"}
{"SMILES": "O=C(O)CN(CCN(CC(=O)O)CC(=O)O)CC(=O)O", "target": "Hydroxyacylglutathione hydrolase, mitochondrial (Homo sapiens, UniProt Q16775)", "assay": "glyoxylase II activity", "setting": "100 µM", "inhibition": "38.8%"}
{"SMILES": "CCCN1C[C@H](CSC)C[C@@H]2c3cccc4[nH]cc(c34)C[C@H]21", "target": "Glutamate receptor 2", "assay": "ion current, negative allosteric modulator, SyncroPatch patch clamp", "system": "HEK293", "setting": "30 µM", "inhibition": "1%"}
{"SMILES": "CC[C@@H]1[C@H](F)C(=O)N[C@@H]1COc1nccc2cc(C(N)=O)c(OC)cc12", "target": "TAOK2 (Homo sapiens, UniProt Q9UL54)", "assay": "ATP probe binding, KiNativ profiling, item: Lys2 probe site", "system": "THP-1 cell lysate", "setting": "0.04 mM", "inhibition": "2%"}
{"SMILES": "COc1ccc2c(c1)C(=O)N(CCN1CCN(c3ccccc3OC)CC1)C2", "target": "DRD3", "assay": "radioligand binding", "setting": "concentration not given, added: [3H]N-methylspiperone", "inhibition": "98.1%"}
{"SMILES": "Cc1ccc(CNC(=O)[C@H](CCc2ccccc2)NC(=O)[C@H](CCc2ccccc2)NC(=O)[C@H](CCc2ccccc2)NC(=O)c2cnc(C)cn2)cc1", "target": "PLAT (Homo sapiens, UniProt P00750)", "assay": "enzyme activity", "setting": "100 µM", "inhibition": "21%"}
{"SMILES": "O=C1NC(=O)C(c2ccccc2)(c2ccccc2)N1", "target": "Glutamate receptor 2", "assay": "ion current, negative allosteric modulator, SyncroPatch patch clamp", "system": "HEK293", "setting": "10 µM", "inhibition": "9%"}
{"SMILES": "CN1CCN(CCCOc2ccc(=O)n(-c3ccc(Cl)c(Cl)c3)n2)CC1", "target": "alpha1 adrenergic receptor", "assay": "radioligand binding", "setting": "1.0 µM", "inhibition": "22.5 ± 2.65%"}
{"SMILES": "COc1cccc(OC[C@H]2CN(CCN3CCc4ccccc43)CCO2)c1", "target": "DRD3", "assay": "radioligand binding", "setting": "concentration not given, added: [3H]N-methylspiperone", "inhibition": "0.3%"}
{"SMILES": "NC/C(=C\\F)COc1cccc(Cn2c(=S)[nH]c(=O)c3[nH]cnc32)c1", "target": "AOC1 (Homo sapiens, UniProt P19801)", "assay": "enzyme activity, inhibitor", "setting": "30 µM", "inhibition": "56.7%"}
{"SMILES": "CC(=O)OCC1=C(C(=O)O)N2C(=O)[C@@H](NC(=O)Cc3cccs3)[C@H]2SC1", "target": "Genome polyprotein NS3 helicase domain", "assay": "DNA binding, inhibitor", "system": "hepatitis C virus", "setting": "100 µM, added: Cy5-dT15 DNA", "inhibition": "0%"}
{"SMILES": "O=C(Nc1cccc2c(=O)cc(-c3nnn[nH]3)oc12)c1ccc(OCCCCc2ccccc2)cc1", "target": "Volume-regulated anion channel subunit LRRC8C, part LRRC8A IL1 chimera (LRRC8C, Homo sapiens, UniProt Q8TDW0)", "assay": "ion current, inhibitor, whole-cell patch clamp", "system": "HCT LRRC8-/- cells, transfected", "setting": "0.3 µM, low ionic strength swelling, -100 mV", "inhibition": "3.46% and -3.72% and -3.46% and 20%"}
{"SMILES": "CNC(=O)c1cc2c(Oc3ccc(NC(=O)C4(C(=O)Nc5ccc(F)cc5)CC4)cc3)ccnc2cc1OC", "target": "Vascular endothelial growth factor receptor 2 (Mus musculus, UniProt P35918)", "assay": "VEGFR2 phosphorylation", "system": "mouse, Hs746T xenograft, lung", "setting": "30 mg/kg single dose, 4 h, added: human VEGF", "inhibition": "100%"}
{"SMILES": "CN1CC(Oc2cnc(C#N)cc2-c2ccn3nc(NC(=O)C4CC4)cc3c2)C1", "target": "Protein kinase C beta type, beta-II isoform (PRKCB, Homo sapiens, UniProt P05771)", "assay": "kinase activity", "setting": "1 µM", "inhibition": "-9%"}
{"SMILES": "CC(=O)O[C@H]1C[C@@H]2CC[C@@H]3[C@H](CC[C@@]4(C)[C@H]3C[C@H]([N+]3(C)CCCCC3)[C@@H]4OC(C)=O)[C@@]2(C)C[C@@H]1[N+]1(C)CCCCC1", "target": "Genome polyprotein NS3 helicase domain", "assay": "DNA binding, inhibitor", "system": "hepatitis C virus", "setting": "100 µM, added: Cy5-dT15 DNA", "inhibition": "1%"}
{"SMILES": "Cn1cc(-n2cnc3c(NCc4nc5cc(Cl)c(Cl)cc5[nH]4)nc(N4CCOCC4)nc32)cn1", "target": "Cyclin-dependent kinase 12, with cyclin K (CDK12, Homo sapiens, UniProt Q9NYV4)", "assay": "kinase activity, inhibitor, ADP-Glo", "setting": "0.0741 µM", "inhibition": "46.3%"}
{"SMILES": "CC12CC3CC(C)(C1)CC(N)(C3)C2", "target": "Glutamate receptor 2", "assay": "ion current, negative allosteric modulator, SyncroPatch patch clamp", "system": "HEK293", "setting": "10 µM", "inhibition": "16%"}
{"SMILES": "Cc1cc(OC(C)C)ccc1C(=O)C(C)(C)NC(=O)c1sccc1C", "target": "succinate-cytochrome c oxidoreductase (complex II-III), Solanum tuberosum", "system": "cv Norin No. 1, mitochondrial fraction", "setting": "concentration not given", "inhibition": "no inhibition"}
{"SMILES": "C[C@@H]1C(=O)NC2=Nc3cccc(Cl)c3CN21", "target": "Genome polyprotein NS3 helicase domain", "assay": "DNA binding, inhibitor", "system": "hepatitis C virus", "setting": "100 µM, added: Cy5-dT15 DNA", "inhibition": "0%"}
{"SMILES": "CC/C(=N\\NC(=O)NCc1cccc(O)c1)c1ccc(O)c(C)c1O", "target": "MAP2K4 (Homo sapiens, UniProt P45985)", "assay": "kinase activity", "setting": "0.1 µM", "inhibition": "0.9%"}
{"SMILES": "[2H]c1cc(C)c(NC(=O)c2cnc(Nc3cc(N4CCCCC4)nc(C)n3)s2)c(Cl)c1", "target": "PRKD1 (Homo sapiens, UniProt Q15139)", "setting": "0.01 µM", "inhibition": "< 30%"}
{"SMILES": "Cc1cc(-c2ccnc3[nH]cc(F)c23)cc(F)c1[C@@]1(O)[C@H](C)CN(C(=O)CN)C[C@@H]1C", "target": "CDK11 and CDK8", "assay": "ATP probe binding, KiNativ, item: Lys2 site", "system": "HEK293T cell lysate", "setting": "10 µM", "inhibition": "64.5%"}
{"SMILES": "CN(C(=O)n1cnc(-c2ccc[n+]([O-])c2)c1)C1CCCCC1", "target": "EDNRB (Homo sapiens, UniProt P24530)", "setting": "10 µM", "inhibition": "16.5%"}
{"SMILES": "CCCCCCCCCCCCCCCC1NCCc2cc(O)c(O)cc21 (stereo not shown)", "target": "tyrosinase", "assay": "enzyme activity, inhibitor", "setting": "100 µM, added: levodopa", "inhibition": "0.37 ± 2.42%"}
{"SMILES": "Cc1ccc(OC[C@H]2CN(CCN3CCc4ccccc43)CCO2)cn1", "target": "DRD3", "assay": "radioligand binding", "setting": "concentration not given, added: [3H]N-methylspiperone", "inhibition": "37.7%"}
{"SMILES": "Cn1c(=O)c2[nH]cnc2n(C)c1=O", "target": "Glutamate receptor 2", "assay": "ion current, negative allosteric modulator, SyncroPatch patch clamp", "system": "HEK293", "setting": "10 µM", "inhibition": "2%"}
{"SMILES": "COc1ccc2[nH]c3c(c2c1)[C@H]1C[C@@H]([C@H]3C)N(Cc2ccccc2)C[C@]1(C)O", "target": "OPRK1 (Cavia porcellus, UniProt P41144)", "assay": "binding, radioligand binding", "system": "guinea pig brain", "setting": "1 µM, added: [3H]U-69,593", "inhibition": "0%"}
{"SMILES": "COc1cc(-c2cc(-c3ccc(N4CCNCC4)cc3)cnc2N)cc(OC)c1OC", "target": "Protein kinase C beta type, isoform beta-I (PRKCB, Homo sapiens, UniProt P05771)", "assay": "kinome profiling", "setting": "0.1 µM", "inhibition": "0%"}
{"SMILES": "O=C(NO)c1ccc(CN2CCCCc3ccccc32)c(F)c1", "target": "DRD3", "assay": "radioligand binding, radioligand displacement", "setting": "10 µM", "inhibition": "18.4%"}
{"SMILES": "N[C@@H](Cc1cnc[nH]1)C(=O)O", "target": "Cationic amino acid transporter 8 (NPT1, Plasmodium vivax, UniProt A5K9W3)", "setting": "100 µM", "inhibition": "57.5%"}
{"SMILES": "CCc1ccccc1OC[C@@H](O)CN[C@H]1CCCc2ccccc21.O=C(O)C(=O)O", "target": "Genome polyprotein NS3 helicase domain", "assay": "DNA binding, inhibitor", "system": "hepatitis C virus", "setting": "100 µM, added: Cy5-dT15 DNA", "inhibition": "0%"}
{"SMILES": "CCN(Cc1ccccc1C(F)(F)F)C(=O)C1CCN(S(=O)(=O)c2ccc3[nH]ncc3c2)CC1", "target": "mouse phorbol ester site", "assay": "radioligand binding", "setting": "10 µM", "inhibition": "2%"}
{"SMILES": "CC(C)NCC(O)COc1cccc2ccccc12 (stereo not shown)", "target": "KCNQ3/KCNQ2", "assay": "ion current, antagonist, SyncroPatch patch clamp", "system": "HEK293", "setting": "10 µM", "inhibition": "25%"}
{"SMILES": "O=C(CN1CCO[C@@H](COc2cccnc2)C1)N1CCc2ccccc21", "target": "DRD3", "assay": "radioligand binding", "setting": "concentration not given, added: [3H]N-methylspiperone", "inhibition": "27.6%"}
{"SMILES": "Nc1nc(Cl)nc2c1ncn2[C@@H]1O[C@H](COP(=O)(O)OP(=O)(O)OP(=O)(O)O)[C@@H](O)[C@H]1O", "target": "Genome polyprotein NS3 helicase domain", "assay": "DNA binding, inhibitor", "system": "hepatitis C virus", "setting": "100 µM, added: Cy5-dT15 DNA", "inhibition": "37%"}
{"SMILES": "Oc1cccc(Nc2nc(-c3ccc(F)cc3F)cs2)c1", "target": "MTNR1B (Homo sapiens, UniProt P49286)", "setting": "10 µM", "inhibition": "15.9%"}
{"SMILES": "Oc1ccc(C2NCCc3cc(O)c(O)cc32)cc1O (stereo not shown)", "target": "tyrosinase", "assay": "enzyme activity, inhibitor", "setting": "100 µM, added: levodopa", "inhibition": "10.3 ± 0.9%"}
{"SMILES": "O=C(CN1CCO[C@H](COc2ccccc2)C1)N1CCc2ccccc21", "target": "DRD3", "assay": "radioligand binding", "setting": "concentration not given, added: [3H]N-methylspiperone", "inhibition": "17.5%"}
{"SMILES": "O=c1ccc2c(OCCCCc3ccccc3)c3ccoc3cc2o1", "target": "Genome polyprotein NS3 helicase domain", "assay": "DNA binding, inhibitor", "system": "hepatitis C virus", "setting": "100 µM, added: Cy5-dT15 DNA", "inhibition": "0%"}
{"SMILES": "Nc1c(Br)cc(Br)cc1CN[C@H]1CC[C@H](O)CC1", "target": "KCNQ3/KCNQ2", "assay": "ion current, antagonist, SyncroPatch patch clamp", "system": "HEK293", "setting": "10 µM", "inhibition": "11%"}
